Experimental data from different studies.
Each line is one published result; not all experiments were run side by side. ± gives the spread as reported. Converted amounts (≈) assume the structure as drawn.

`C=C(C)[C@@H]1CC[C@]2(C(=O)n3ccnc3)CC[C@]3(C)[C@H](CC[C@@H]4[C@@]5(C)CCCNC(C)(C)[C@@H]5CC[C@]43C)[C@@H]12` gave a selectivity index of < 5 (Human cytomegalovirus; HFF, AD169; reference: CC50 over EC50).
`CC[C@H](C)[C@H](NC(=O)[C@H](CCCN)NC(=O)[C@H](CC(N)=O)NC(=O)[C@H](Cc1c[nH]c2ccccc12)NC(=O)[C@H](Cc1ccccc1)NC(=O)[C@H](CCCN)NC(=O)[C@H](CCCCNC(=N)N)NC(=O)[C@H](CC(C)C)NC(=O)[C@H](Cc1c[nH]c2ccccc12)NC(=O)[C@H](CCCN)NC(=O)[C@H](CCCCNC(=N)N)NC(=O)[C@H](CC(C)C)NC(=O)CNC(C)=O)C(=O)N[C@@H](CCCN)C(=O)N[C@@H](CCCCNC(=N)N)C(N)=O` — result for “geometric mean MIC”: 3.51 µM (all bacteria tested).
With `O=C(O)CN1C(=O)/C(=C/c2ccc(-c3ccc(N(c4ccccc4)c4ccccc4)cc3)cc2)NC1=S` the MBC/MIC ratio was 2 (Streptococcus pneumoniae; broth microdilution; ATCC 49619).
For `CC1(C)CC[C@]23CC[C@]4(C)[C@H](CC[C@@H]5[C@@]6(C)CCCNC(C)(C)[C@@H]6CC[C@]54C)[C@H]2[C@H]1OC3`, antiviral activity read “inactive” (Human cytomegalovirus; cytopathic effect; HFF, AD169; concentration not given).
`COC(=O)c1cccc(-n2nc(C)c3c(C)n(-c4ccc(OC)cc4)nc3c2=O)c1` gave a selectivity index of 2.3 (Zika virus; Vero, MR766; reference: CC50 over EC50).
`C[C@@H](c1ccn(Cc2ccc(I)cc2)n1)[C@](O)(Cn1cnnn1)c1ccc(F)cc1F` has an MIC of < 0.008 µg/mL (Candida tropicalis; growth, broth microdilution; 2718; 24 h, 30 °C, ≥50% inhibition).
The MFC of `CC(=O)c1c(O)c(C)c(O)c2c1OC1=CC(=O)/C3=C(/C)N[C@H](C(=O)O)CC1=CC=C(O)C=C[C@@]2(C)C3=O` is reported as 49.3 µM (≈ 25 µg/mL) (Candida tropicalis; microbial killing).
`CN(C)c1cc(CN2CCCCC2)c(O)c2c1C[C@H]1C[C@H]3[C@H](N(C)C)C(O)=C(C(N)=O)C(=O)[C@@]3(O)C(O)=C1C2=O` gave an MIC of 0.125 µg/mL (≈ 0.225 µM) (Streptococcus pneumoniae; 157E; 50% mouse serum).
`Nc1cc2nc(-c3ccc(F)c(F)c3)cn2cn1` gave an EC50 of > 20000 nM (Trypanosoma cruzi; 3T3 host cells, Tulahuen beta-galactosidase; 6 days).
For `COC1C=COC2(C)Oc3c(C)c(O)c4c(c3C2=O)C2=NC3(CCN(CC(C)C)CC3)NC2=C(NC(=O)C(C)=CC=CC(C)C(O)C(C)C(O)C(C)C(OC(=O)Nc2cccnn2)C1C)C4=O` (stereo not drawn), the IC50 was 28 nM (Mycobacteroides abscessus; ATCC 19977; CAMHB).
The IC50 of `COc1ccc(C2OC(=O)c3ccc(C(C)C)c(O)c32)cc1OC` (stereo not drawn) is reported as 34900 nM (Naegleria fowleri; parasite growth, resazurin; 48 h).
With `CN(C)c1cc(CNc2ccccc2)c(O)c2c1C[C@H]1C[C@H]3[C@H](N(C)C)C(O)=C(C(N)=O)C(=O)[C@@]3(O)C(O)=C1C2=O` the MIC was 2 µg/mL (≈ 3.55 µM) (Streptococcus pneumoniae; microbial growth, broth dilution).
The EC50 of `N#Cc1ccc(-c2cn([C@@H]3O[C@H](CO)[C@@H](O)[C@H]3O)c3ncnc(N)c23)cc1` is reported as 2160 ± 30 nM (Trichomonas vaginalis; resorufin; G3, metronidazole-sensitive; 24 h + 2 h, 2% O2).
The MIC of `CN(C)c1cc(CNCc2ccccc2)c(O)c2c1C[C@H]1C[C@H]3[C@H](N(C)C)C(O)=C(C(N)=O)C(=O)[C@@]3(O)C(O)=C1C2=O` is reported as 0.25 µg/mL (≈ 0.434 µM) (Streptococcus pneumoniae; 157E; 50% mouse serum).
`Cc1ccc(OCCn2c(=S)[nH]c3ccccc32)c(C(C)C)c1` — result for inhibition: “inhibited” (Saccharomyces cerevisiae; reporter gene, item: Rlm1-lacZ; up to 20 µM, added: Calcofluor white).

Some of these lines once more:
The EC50 of `N#Cc1ccc(-c2cn([C@@H]3O[C@H](CO)[C@@H](O)[C@H]3O)c3ncnc(N)c23)cc1` is reported as 2160 ± 30 nM (Trichomonas vaginalis; resorufin; G3, metronidazole-sensitive; 24 h + 2 h, 2% O2).
The MIC of `CN(C)c1cc(CNCc2ccccc2)c(O)c2c1C[C@H]1C[C@H]3[C@H](N(C)C)C(O)=C(C(N)=O)C(=O)[C@@]3(O)C(O)=C1C2=O` is reported as 0.25 µg/mL (≈ 0.434 µM) (Streptococcus pneumoniae; 157E; 50% mouse serum).
